Measurements pooled from the literature.
Lines come from different studies, so protocols differ. Values joined by “and” are separate records of one study, mostly repeats; a detail may differ. ± marks the error that the study gave.

SMILES | assay | test system | setting | how to read | quantity | result
CCCC[C@H](NC(=O)CNC(=O)CNC(=O)CN1CCN(CC(=O)O)CCN(CC(=O)O)CCN(CC(=O)O)CC1)C(=O)N[C@H]1CC(=O)NCCCC[C@@H](C(N)=O)NC(=O)[C@H](Cc2c[nH]c3ccccc23)NC(=O)[C@H](CCCNC(=N)N)NC(=O)[C@@H](Cc2ccccc2)NC(=O)[C@H](Cc2c[nH]cn2)NC1=O [gallium-67 labelled] |  | C57 mice, female, B16/F1 melanoma, tumour over muscle | intravenous, 0.037 MBq, 4 h |  | tumour to tissue uptake ratio | 78.3
O=C(COc1ccc(CO)cc1)N(Cc1cccs1)c1cc[nH]n1 | LC-MS EIC | dog liver microsomes, pooled, both sexes | 10 µM, 60 min | baseline: reference compound at start | relative peak area | 13.7%
CC1C(c2c(F)ccc(F)c2F)CC(N[14C](=O)c2cnc3c(c2)CC2(C3)C(=O)Nc3ncccc32)C(=O)N1CC(F)(F)F (stereo not shown) | measured: total radioactivity | human, urine and feces | 14 days | baseline: dose | total excretion | 88.5% and ~89%
OCc1cn(Cc2ccc(-c3noc(-c4ccc(OCC[18F])c(C(F)(F)F)c4)n3)cc2)nn1 |  | female Lewis rat, muscle | intravenous, 30 min |  | tissue uptake | 0.59 ± 0.05 %ID/g
COc1cc2c(cc1OC)CN(CCCCn1ccc3cc(OCC[18F])ccc31)C2 |  | male ICR mice | intravenous, 280 kBq, 2 min post-injection |  | muscle uptake | 5.6 ± 0.91 %ID/g
CCCCN1C(=O)c2cccc3c(NCCCCN4CCOCC4)ccc(c23)C1=O |  | aqueous medium | pH 6 |  | average fluorescence lifetime | 4.6 ns
Cn1c(=O)oc2ccc(-c3ccc(CC(C#N)NC(=O)C4CNCCCO4)c(F)c3)cc21 (stereo not shown) | measured: macule | human | 15 mg single dose, fasted |  | subjects with TEAE | 0%
CC(C)(F)CC(NC(c1ccc(-c2ccc(S(C)(=O)=O)cc2)cc1)C(F)(F)F)C(=O)NCC#N (stereo not shown) | LC-MS UV trace | aqueous buffer | concentration not given, 23 h, pH 8.0, 37 °C, together with: cysteine 10 mM |  | cysteine adduct formation | 98%
NC[C@@H](C(=O)Nc1ccc(-c2cn[nH]c2)cc1)c1ccccc1 | OECD 405 eye irritation | New Zealand White rabbit, eye | topical, 0.1%, 25 h (day 2), scale 0 to 4 | direction not given | cornea score | 0
CC(C)c1cnc(-c2cc(Cl)ccc2F)cc1Nc1ccncc1C(=O)NC(CO)CO | measured: anaemia | human patients | oral, dose not given, grade 4 |  | patients with related SAE | 0%
CC(=O)[CH](C(C)=O)[Pt-2]1([S+](C)C)[O]C(C)=CC(C)=[O+]1 (stereo not shown) | atomic absorption spectroscopy | rat | 48 h | baseline: dose | Pt eliminated | 8%
CC(O)c1ccc(C2CC3(C)C(CCC3(O)C(F)(F)C(F)(F)F)C3CCC4=CC(=O)CCC4=C23)cc1 (stereo not shown) |  | human liver microsomes | 100 % absorption assumed |  | maximal oral bioavailability | 50%
CCOc1ccc2c(c1)C(C)=CC(C)(C)N2c1cc(OCC)cc2c1NC(C)(C)C=C2C | LC-MS/MS | piglets, kidney | oral in feed, 50 mg/kg feed ethoxyquin, 42 days |  | tissue residue | 21.3 ± 6.5 ng/g
Cc1cccc(O[C@H]2CCC[C@@H](C(C)CNCc3ccncc3)C2)c1 (relative stereo) |  | C57BL/6 mouse female, plasma | oral, 25 mg/kg |  | Clast | 1.05 ng/mL
CC(=O)N[C@H](C)c1cc(Cl)ccc1Cn1c(=S)[nH]c(=O)c2[nH]ccc21 |  | Sprague-Dawley rat, both sexes, plasma | oral, 125 mg/kg/day | baseline: rat over human clinical doses | exposure ratio | ≥ 1
CC12CC(c3ccc(S(C)(=O)=O)cc3)C3=C4CCC(=O)C=C4CCC3C1CCC2(O)C(F)(F)C(F)(F)F (stereo not shown) | measured: total radioactivity | human, feces | oral, 5 mg, 21 days |  | dose recovered in feces | 73.5 ± 3.7%
Oc1cc(F)ccc1Oc1ccccc1 | rapid equilibrium dialysis | mouse plasma | 4 h, 37 °C |  | unbound fraction in plasma | 0.05
CC12CC(c3ccc(C(=O)CO)cc3)C3=C4CCC(=O)C=C4CCC3C1CCC2(O)C(F)(F)C(F)(F)F (stereo not shown) |  | human liver microsomes | 100 % absorption assumed |  | maximal oral bioavailability | 58%
Cc1cc(C)nc(NC(=S)N2CCN(Cc3ccc(C(F)(F)F)cc3)CC2)c1 |  | female NOD.SCID mice, MDA-MB-468 orthotopic xenograft, tumour | intraperitoneal, 40 mg/kg daily, 24 days |  | concentration | ~3 µM
COC1C=COC2(C)Oc3c(C)c(O)c4c(c3C2=O)C2=NC3(CCN(CC(C)C)CC3)NC2=C(NC(=O)C(C)=CC=CC(C)C(O)C(C)C(O)C(C)C(OC(=O)Nc2cscn2)C1C)C4=O (stereo not shown) |  | CD-1 mouse female, plasma | oral, 10 mg/kg |  | fAUC/MIC ratio | 25
COc1ccc(OC)c(C(=Cc2ccc(O)c(OC)c2)C(=O)NCCc2ccc(O)cc2)c1 |  | KM mice, plasma | oral, 50 mg/kg |  | Tmax, first peak | 5 min
[2H]C([2H])([2H])NC(=O)c1ccc(N2C(=S)N(c3ccc(C#N)c(C(F)(F)F)c3)C(=O)C2(C)C)cc1F |  | male human, plasma | oral, 160 mg, single dose, fasted |  | AUC | 759 µg·h/mL
CN1CCC[C@]1(C)/C=C/S(=O)(=O)NC(=O)Nc1c2c(cc3c1CCC3)CCC2 |  | human, plasma | oral, 400 mg, single dose, healthy volunteers |  | half-life | 5.7 h
c1ccc(CN2CCOCCOCCN(CCCCCCCCN3CCOCCOCCN(CCCCCCCCN4CCOCCOCCN(Cc5ccccc5)CCOCCOCC4)CCOCCOCC3)CCOCCOCC2)cc1 | scanning electron microscopy | Escherichia coli cell surface | concentration not given, 5 min |  | aggregate size | 226 ± 9 nm
O=C(CCc1ccc(CNC(C(=O)OC2CCCC2)C2CCCCC2)cn1)NO (stereo not shown) |  | human | 20 mg, single dose, geometric mean |  | CL/F | 499 L/h
CC(=O)N[C@H](CSSC[C@H](N)C(=O)O)C(=O)N[C@H](C)C(=O)N[C@H](CCCNC(=N)N)C(=O)N[C@H](CCCNC(=N)N)C(=O)N[C@H](CCCNC(=N)N)C(=O)N[C@H](C)C(=O)N[C@H](CCCNC(=N)N)C(N)=O |  | male human, plasma | intravenous, 10 mg, single dose, healthy volunteers |  | AUC(0-inf) | 1.28 µg·h/mL
CCCC[C@@H]1NC(=O)[C@@H](NC(=O)[C@H](CCC(=O)O)NC(=O)CNC(=O)CN2CCN(CC(=O)O)CCN(CC(=O)O)CCN(CC(=O)O)CC2)CCCCNC(=O)C[C@@H](C(N)=O)NC(=O)[C@H](C(C)C)NC(=O)[C@@H]2CCCN2C(=O)[C@H](CCCNC(=N)N)NC(=O)CNC(=O)[C@H](Cc2c[nH]c3ccccc23)NC(=O)[C@H](CCCNC(=N)N)NC(=O)[C@@H](Cc2ccccc2)NC(=O)[C@H](Cc2c[nH]cn2)NC(=O)[C@H](CCC(=O)O)NC1=O [gallium-67 labelled] |  | C57 mice, B16/F10 lung metastases | intravenous, 0.037 MBq, 2 h |  | lung uptake | 1.44 ± 0.75 %ID/g
Cc1ccc(-c2ccc(-c3cc4sccc4o3)cn2)nc1 | TCSPC | toluene |  |  | radiative decay rate constant | 0.67 ns⁻¹

For quick reference, copied from above:
SMILES | assay | test system | setting | how to read | quantity | result
COC1C=COC2(C)Oc3c(C)c(O)c4c(c3C2=O)C2=NC3(CCN(CC(C)C)CC3)NC2=C(NC(=O)C(C)=CC=CC(C)C(O)C(C)C(O)C(C)C(OC(=O)Nc2cscn2)C1C)C4=O (stereo not shown) |  | CD-1 mouse female, plasma | oral, 10 mg/kg |  | fAUC/MIC ratio | 25
O=C(CCc1ccc(CNC(C(=O)OC2CCCC2)C2CCCCC2)cn1)NO (stereo not shown) |  | human | 20 mg, single dose, geometric mean |  | CL/F | 499 L/h
CC(=O)N[C@H](C)c1cc(Cl)ccc1Cn1c(=S)[nH]c(=O)c2[nH]ccc21 |  | Sprague-Dawley rat, both sexes, plasma | oral, 125 mg/kg/day | baseline: rat over human clinical doses | exposure ratio | ≥ 1
NC[C@@H](C(=O)Nc1ccc(-c2cn[nH]c2)cc1)c1ccccc1 | OECD 405 eye irritation | New Zealand White rabbit, eye | topical, 0.1%, 25 h (day 2), scale 0 to 4 | direction not given | cornea score | 0
